# Experimental data of several laboratories.
# Protocols differ between the studies behind these lines. Values joined by “and” are separate records of one study, mostly repeats; a detail may differ.
# UniProt Q9H4A3, sequence (whole entry, looked up): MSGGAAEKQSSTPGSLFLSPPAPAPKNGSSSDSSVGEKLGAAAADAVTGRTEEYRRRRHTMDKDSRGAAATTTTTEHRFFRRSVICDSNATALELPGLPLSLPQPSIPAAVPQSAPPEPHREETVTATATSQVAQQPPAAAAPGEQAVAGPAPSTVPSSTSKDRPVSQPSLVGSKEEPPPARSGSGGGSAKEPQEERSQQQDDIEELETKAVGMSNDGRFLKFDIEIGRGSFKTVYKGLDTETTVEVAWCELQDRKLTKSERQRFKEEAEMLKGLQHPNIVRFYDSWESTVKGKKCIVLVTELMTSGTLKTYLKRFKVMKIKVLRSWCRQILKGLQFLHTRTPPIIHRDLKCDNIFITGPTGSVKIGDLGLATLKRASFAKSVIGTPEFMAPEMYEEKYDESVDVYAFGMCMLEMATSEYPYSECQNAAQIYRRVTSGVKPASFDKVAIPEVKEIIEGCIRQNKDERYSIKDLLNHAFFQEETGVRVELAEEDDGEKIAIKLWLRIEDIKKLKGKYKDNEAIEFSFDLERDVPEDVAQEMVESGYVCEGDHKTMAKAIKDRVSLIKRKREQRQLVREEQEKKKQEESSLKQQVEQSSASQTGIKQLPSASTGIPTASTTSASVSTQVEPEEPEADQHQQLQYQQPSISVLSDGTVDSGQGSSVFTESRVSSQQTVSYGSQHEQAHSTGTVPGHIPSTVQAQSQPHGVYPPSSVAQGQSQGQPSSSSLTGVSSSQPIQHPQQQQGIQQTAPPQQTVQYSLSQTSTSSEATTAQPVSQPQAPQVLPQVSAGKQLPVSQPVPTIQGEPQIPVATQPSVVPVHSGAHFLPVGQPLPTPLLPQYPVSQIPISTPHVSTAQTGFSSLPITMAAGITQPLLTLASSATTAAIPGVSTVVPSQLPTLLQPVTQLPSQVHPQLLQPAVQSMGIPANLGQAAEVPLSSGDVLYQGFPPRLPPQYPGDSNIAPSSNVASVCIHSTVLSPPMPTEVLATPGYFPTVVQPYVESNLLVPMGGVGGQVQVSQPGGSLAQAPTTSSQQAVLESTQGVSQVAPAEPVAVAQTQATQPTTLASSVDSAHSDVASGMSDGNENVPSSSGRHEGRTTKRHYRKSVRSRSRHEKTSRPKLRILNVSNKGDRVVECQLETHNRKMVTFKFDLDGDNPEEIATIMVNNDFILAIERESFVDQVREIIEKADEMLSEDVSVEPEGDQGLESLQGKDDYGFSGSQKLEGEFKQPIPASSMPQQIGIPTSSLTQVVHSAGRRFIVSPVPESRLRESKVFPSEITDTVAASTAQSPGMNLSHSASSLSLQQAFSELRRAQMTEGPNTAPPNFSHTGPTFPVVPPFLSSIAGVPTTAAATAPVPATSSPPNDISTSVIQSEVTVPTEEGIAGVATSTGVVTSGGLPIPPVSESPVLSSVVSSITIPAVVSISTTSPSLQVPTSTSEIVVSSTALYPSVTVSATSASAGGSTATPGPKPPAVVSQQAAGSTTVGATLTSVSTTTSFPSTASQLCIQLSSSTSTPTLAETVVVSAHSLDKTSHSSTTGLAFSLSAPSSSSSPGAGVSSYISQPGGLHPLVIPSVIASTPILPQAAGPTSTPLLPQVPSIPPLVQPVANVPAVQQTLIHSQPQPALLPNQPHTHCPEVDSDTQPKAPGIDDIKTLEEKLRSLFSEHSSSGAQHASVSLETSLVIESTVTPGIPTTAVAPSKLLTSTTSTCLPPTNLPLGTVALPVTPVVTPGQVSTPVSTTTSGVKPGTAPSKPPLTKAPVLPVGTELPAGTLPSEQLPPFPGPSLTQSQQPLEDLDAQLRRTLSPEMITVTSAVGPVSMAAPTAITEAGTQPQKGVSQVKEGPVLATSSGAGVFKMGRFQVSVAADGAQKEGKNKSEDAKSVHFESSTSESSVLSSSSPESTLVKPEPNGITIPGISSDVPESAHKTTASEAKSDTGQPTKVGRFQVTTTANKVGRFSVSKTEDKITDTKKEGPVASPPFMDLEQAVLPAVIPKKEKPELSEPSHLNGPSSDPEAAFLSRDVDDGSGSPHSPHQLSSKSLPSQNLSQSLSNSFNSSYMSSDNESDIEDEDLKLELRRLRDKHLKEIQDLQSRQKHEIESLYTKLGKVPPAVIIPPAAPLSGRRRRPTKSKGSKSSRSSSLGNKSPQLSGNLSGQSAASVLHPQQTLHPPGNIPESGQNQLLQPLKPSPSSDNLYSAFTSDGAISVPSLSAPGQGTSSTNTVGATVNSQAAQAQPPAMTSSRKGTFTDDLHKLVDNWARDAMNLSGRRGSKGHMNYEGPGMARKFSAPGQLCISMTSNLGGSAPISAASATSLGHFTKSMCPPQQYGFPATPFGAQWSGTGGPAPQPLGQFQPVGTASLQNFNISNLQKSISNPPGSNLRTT
# UniProt Q8NCC3, sequence (whole entry, looked up): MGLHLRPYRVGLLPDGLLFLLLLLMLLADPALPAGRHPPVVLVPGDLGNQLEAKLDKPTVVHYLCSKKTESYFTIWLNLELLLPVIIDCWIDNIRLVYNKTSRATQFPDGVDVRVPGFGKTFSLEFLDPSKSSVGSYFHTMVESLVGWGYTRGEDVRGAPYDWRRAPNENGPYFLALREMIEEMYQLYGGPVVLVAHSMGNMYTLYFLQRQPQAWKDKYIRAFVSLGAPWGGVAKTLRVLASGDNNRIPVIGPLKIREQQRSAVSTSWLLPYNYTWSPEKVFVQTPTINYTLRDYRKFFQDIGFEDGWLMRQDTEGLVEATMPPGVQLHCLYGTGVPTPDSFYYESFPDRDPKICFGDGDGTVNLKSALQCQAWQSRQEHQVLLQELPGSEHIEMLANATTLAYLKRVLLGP
SMILES,target or system,assay,test system,conditions,scale,endpoint,value
NCCCC[C@@H]1NC(=O)[C@@H](Cc2c[nH]c3ccccc23)NC(=O)[C@H](c2ccccc2)NC(=O)[C@@H]2C[C@@H](OC(=O)NCCN)CN2C(=O)[C@H](Cc2ccccc2)NC(=O)[C@H](Cc2ccc(OCc3ccccc3)cc2)NC1=O,,,"healthy volunteers, female","600 µg twice daily, 8.0 h, post hoc",,placebo-corrected QTcF change,-0.9 ms
CCN1[C@@H](C(=O)NC23CCC(C(=O)O)(CC2)CC3)[C@H](c2cccc(Cl)c2F)[C@]2(C(=O)Nc3cc(Cl)ccc32)C12CCCCC2,,,patients with advanced solid tumours,"oral, 200 mg",,grade ≥3 Anemia incidence,50%
COc1cccc(Oc2ccccc2NC(=O)CNC(=O)c2cccc3ccccc23)c1,,,"esterase-deficient SCID mice, male, blood","oral, 15 mg/kg/day, 14 days, toxicity study",reference: white cells,lymphocytes,34% and 56.4% and 56%
O=C(c1ccc(F)c(F)c1Nc1ccc(I)cc1F)N1CC(O)([C@@H]2CCCCN2)C1,,,patients aged 2 to 6 years,"oral, dose not given",,AE leading dose modification,30%
CN1CCN(c2cccc3c2CCN(C(=O)/C=C/c2c(-n4cnnn4)ccc(Cl)c2F)[C@@H]3C(=O)Nc2ccc(C(=O)O)cc2)C(=O)C1,,,healthy human subjects,"intravenous infusion, 20 mg/h, 5 days",,deaths,0%
CC(C)C[C@H]1C(=O)O[C@H](Cc2ccc(N3CCOCC3)cc2)C(=O)N(C)[C@@H](CC(C)C)C(=O)O[C@H](C)C(=O)N(C)[C@@H](CC(C)C)C(=O)O[C@H](Cc2ccc(N3CCOCC3)cc2)C(=O)N(C)[C@@H](CC(C)C)C(=O)O[C@H](C)C(=O)N1C,,,HBSS,"18 h, pH 7.4",,thermodynamic solubility,0.501 µM
COc1ccc2nc3cc(Cl)ccc3c(Nc3cc(CN4CCCC4)c(O)c(CN4CCCC4)c3)c2n1,,,"mouse, blood","oral, 57 mg/kg, tolerability, mean",,alanine aminotransferase,0.42 U/L
C[C@@H](O)[C@@H](CO)NC(=O)[C@@H](CCCNC(=N)N)NC(=O)[C@@H]1CCCN1C(=O)[C@@H]1CSSC[C@H](NC(=O)[C@H](Cc2ccccc2)NC(=O)CN2CCN(CC(=O)O)CCN(CC(=O)O)CCN(CC(=O)O)CC2)C(=O)N[C@@H](Cc2ccc(O)cc2)C(=O)N[C@@H](Cc2ccccc2)C(=O)N[C@@H](CCC(N)=O)C(=O)N[C@@H](CC(N)=O)C(=O)N1 [gallium-68 labelled],,,"Wistar rat, kidneys","intravenous, 8 MBq, 30 min, group mean",,tissue uptake,7.42 %ID/g
COc1ccnc(C(=O)N[C@H]2COC(=O)[C@H](Cc3ccccc3)[C@@H](OC(=O)C(C)C)[C@H](C)OC2=O)c1OCOC(=O)C(C)C,,,"rats, mice and rabbits, urine","oral, dose not given",,excretion,12 to 42%
CC[C@H](C)[C@@H]1NC(=O)[C@@H]2CCCN2C(=O)[C@H](CC(C)C)NC(=O)[C@H](CC(C)C)NC(=O)CNC(=O)[C@@H](NC(=O)[C@@H](NC(=O)[C@H](CC(=O)O)NC(=O)CNC(=O)[C@@H](NC(=O)[C@H](C)NC(=O)CNC(=O)[C@H](CCCCN)NC(=O)[C@H](CC(C)C)NC(=O)[C@H](CC(C)C)NC(=O)[C@H](CCCCN)NC(=O)CNC(=O)[C@@H](NC(=O)[C@@H](N)CC(C)C)C(C)C)C(C)C)C(C)C)CSSC[C@@H](C(=O)O)NC1=O,,"RNA-seq, refers to: Fosl2","mouse, traumatic brain injury model, frontal cortex and hippocampus",dose not given,reference: TBI alone,log2 fold change,-1.79
C=CC(=O)Nc1cc(Nc2nccc(Nc3cc(Cl)c(F)cc3C(C)(C)O)n2)c(OC)cc1N1CC[C@@H](N(C)C)C1,,treatment-emergent adverse events,human,"oral, 100 mg, phase I clinical trial",,incidence of blood creatine phosphokinase increased,22.2%
O=C(c1ccc(Cl)cc1)N1CCN2C(=O)N(OC(=O)N3CCOc4ccccc43)C(=O)C2C1 (stereo not shown),"PLA2G15 (Homo sapiens, UniProt Q8NCC3)","enzyme activity, inhibitor, MS-based ABPP",SW-620 in situ,"10 µM, 2 h, 37 °C","reference: compound over DMSO, lower = stronger inhibition",median ratio,1.13
CC[C@H](C)[C@H](NC(=O)[C@H](Cc1ccccc1)NC(=O)[C@H](CCC(=O)O)NC(=O)[C@H](CCCNC(=N)N)NC(=O)[C@H](C)NC(=O)[C@H](C)NC(=O)[C@H](CCC(N)=O)NC(=O)[C@H](CCC(=O)O)NC(=O)[C@H](CCC(=O)O)NC(=O)[C@H](CC(C)C)NC(=O)[C@H](Cc1ccc(O)cc1)NC(=O)[C@H](CO)NC(=O)[C@H](CO)NC(=O)[C@@H](NC(=O)[C@H](CC(=O)O)NC(=O)[C@H](CO)NC(=O)[C@@H](NC(=O)[C@H](Cc1ccccc1)NC(=O)[C@@H](NC(=O)CNC(=O)[C@H](CCC(=O)O)NC(=O)[C@H](C)NC(=O)CCc1c[nH]cn1)[C@@H](C)O)[C@@H](C)O)C(C)C)C(=O)N[C@@H](C)C(=O)N[C@@H](Cc1c[nH]c2ccccc12)C(=O)N[C@@H](CC(C)C)C(=O)N[C@H](C(=O)N[C@@H](CCCNC(=N)N)C(=O)NCC(=O)N[C@@H](CCCNC(=N)N)C(=O)N[C@@H](CCCCNC(=O)COCCOCCNC(=O)COCCOCCNC(=O)CC[C@H](NC(=O)CCCCCCCCCCCCCCCCC(=O)O)C(=O)O)C(=O)NCC(=O)NCC(=O)N[C@@H](CO)C(=O)N[C@@H](CCCCNc1c(NCCCCCN(O)C(=O)CCC(=O)NCCCCCN(O)C(=O)CCC(=O)NCCCCCN(O)C(C)=O)c(=O)c1=O)C(=O)O)C(C)C [zirconium-89 labelled],,ex vivo gamma counting,"rat, skin at injection site","subcutaneous, 3 nmol/kg, 72 h",,tissue uptake,1.32 %ID/g
O=C1c2c(O)c(=O)ccn2N([C@@H]2c3ccccc3SCc3c2ccc(F)c3F)[C@@H]2COCCN12,,,BALB/c mouse,"subcutaneous, 0.5 mg/kg q24h",,Cmax,34.3 ng/mL
CC(=O)c1c(C)c2cnc(Nc3ccc(C4CCN(CCS(C)(=O)=O)CC4)cn3)nc2n(C2CCCC2)c1=O,,,"human patients, plasma","oral, 75 mg twice daily, day 21 multiple doses, added: fulvestrant",,clearance,1920 mL/min
C[C@H]1CN(c2n[nH]c3nc(N[C@H]4CC[C@H](NS(=O)(=O)CCC(F)(F)F)CC4)ncc23)CCO1,"WNK1 (Homo sapiens, UniProt Q9H4A3)","inhibitor, Kinobeads competition profiling",,0.032 µM,reference: vehicle,relative abundance,1.11
CCc1ccc(CC/C=C/c2ccc3c(c2)C(=O)CC3)cc1,,,"Sprague-Dawley rat, male","oral, 450 mg/kg/day, 14 days",,Phosphorus,3.21 mM
COc1ncccc1-c1cnn2ccc(N3CCN(C(=O)OC(C)C)CC3)nc12,,,"rat, thermal hyperalgesia model, brain","oral, 0.3 mg/kg, 180 min",,drug concentration,170 nM
CO[C@H]1C[C@@H]2CC[C@@H](C)[C@@](O)(O2)C(=O)C(=O)N2CCCC[C@H]2C(=O)O[C@H]([C@H](C)C[C@@H]2CC[C@@H](OC(=O)NCCOCCOCCOCCOCCOCCOCCOCCOCCC(=O)N3CCc4cc(Cn5nc(-c6ccc7oc(N)nc7c6)c6c(N)ncnc65)ccc4C3)[C@H](OC)C2)C[C@@H](O)[C@H](C)/C=C(\C)[C@@H](O)[C@@H](OC)C(=O)[C@H](C)C[C@H](C)/C=C/C=C/C=C/1C,,,patients with advanced solid tumours,"intravenous, 6 mg weekly, grade 3 or higher",,fatigue incidence,8.3%

# Repeated from above:
SMILES,target or system,assay,test system,conditions,scale,endpoint,value
COc1cccc(Oc2ccccc2NC(=O)CNC(=O)c2cccc3ccccc23)c1,,,"esterase-deficient SCID mice, male, blood","oral, 15 mg/kg/day, 14 days, toxicity study",reference: white cells,lymphocytes,34% and 56.4% and 56%
O=C(c1ccc(F)c(F)c1Nc1ccc(I)cc1F)N1CC(O)([C@@H]2CCCCN2)C1,,,patients aged 2 to 6 years,"oral, dose not given",,AE leading dose modification,30%
